Measured values pooled from the literature.
Compare with care: the assays were run in different laboratories.
UniProt P08069, sequence (whole entry, looked up): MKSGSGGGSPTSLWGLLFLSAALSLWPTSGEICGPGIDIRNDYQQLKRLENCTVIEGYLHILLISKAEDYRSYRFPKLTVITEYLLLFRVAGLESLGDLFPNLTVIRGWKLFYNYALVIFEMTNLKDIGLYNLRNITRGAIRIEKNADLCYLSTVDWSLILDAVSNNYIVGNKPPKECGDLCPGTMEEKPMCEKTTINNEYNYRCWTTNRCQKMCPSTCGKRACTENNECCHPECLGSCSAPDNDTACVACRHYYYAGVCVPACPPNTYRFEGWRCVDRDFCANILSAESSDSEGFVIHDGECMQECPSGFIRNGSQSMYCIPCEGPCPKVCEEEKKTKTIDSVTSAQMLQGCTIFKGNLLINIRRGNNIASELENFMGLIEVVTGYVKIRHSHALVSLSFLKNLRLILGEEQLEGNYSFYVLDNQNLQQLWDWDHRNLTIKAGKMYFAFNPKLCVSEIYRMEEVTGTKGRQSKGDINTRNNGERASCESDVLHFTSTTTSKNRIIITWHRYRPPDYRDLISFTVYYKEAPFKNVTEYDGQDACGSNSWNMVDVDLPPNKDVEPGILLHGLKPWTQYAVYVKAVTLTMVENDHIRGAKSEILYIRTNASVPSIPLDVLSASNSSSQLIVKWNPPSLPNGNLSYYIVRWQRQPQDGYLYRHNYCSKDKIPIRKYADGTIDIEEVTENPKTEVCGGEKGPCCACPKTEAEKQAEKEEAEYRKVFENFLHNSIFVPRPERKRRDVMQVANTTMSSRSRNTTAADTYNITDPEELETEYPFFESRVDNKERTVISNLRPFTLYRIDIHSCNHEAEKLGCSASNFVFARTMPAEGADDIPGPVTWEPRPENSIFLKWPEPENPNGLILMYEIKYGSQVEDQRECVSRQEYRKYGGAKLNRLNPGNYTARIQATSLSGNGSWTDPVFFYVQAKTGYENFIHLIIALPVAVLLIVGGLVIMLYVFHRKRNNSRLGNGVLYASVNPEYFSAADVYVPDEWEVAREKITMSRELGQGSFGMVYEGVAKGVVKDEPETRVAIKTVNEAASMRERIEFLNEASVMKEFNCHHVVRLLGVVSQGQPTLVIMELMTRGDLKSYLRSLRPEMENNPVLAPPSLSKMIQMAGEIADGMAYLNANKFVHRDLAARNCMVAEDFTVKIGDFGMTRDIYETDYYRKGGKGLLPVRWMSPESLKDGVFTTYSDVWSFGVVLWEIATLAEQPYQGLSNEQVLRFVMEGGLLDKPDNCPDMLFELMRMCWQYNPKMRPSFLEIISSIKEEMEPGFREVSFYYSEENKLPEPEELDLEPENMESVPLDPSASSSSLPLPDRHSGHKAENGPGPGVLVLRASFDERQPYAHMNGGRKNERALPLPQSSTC

SMILES	target or system	test	test system	setting	scale	measurement	value
Cc1c2ccncc2c(C)c2c1[nH]c1ccccc12	Candidozyma auris	inhibitor	280	24 h		MIC	128 µg/mL
CC[C@H](C)[C@H](NC(=O)[C@H](CCCNC(=N)N)NC(=O)[C@H](Cc1c[nH]c2ccccc12)NC(=O)[C@H](CCCNC(=N)N)NC(=O)[C@H](Cc1c[nH]c2ccccc12)NC(=O)[C@H](Cc1c[nH]c2ccccc12)NC(=O)[C@H](Cc1c[nH]c2ccccc12)NC(=O)[C@H](CCCNC(=N)N)NC(=O)[C@H](Cc1c[nH]c2ccccc12)NC(=O)[C@@H](N)CCCNC(=N)N)C(N)=O	Candida albicans	broth microdilution	CGMCC 2.209, RPMI 1640-MOPS	48 h, 30 °C, added: CaCl2 2 mM		MIC	32 µM
C[C@H]1CN(c2n[nH]c3nc(N[C@H]4CC[C@H](NS(=O)(=O)CCC(F)(F)F)CC4)ncc23)CCO1	IGF1R (Homo sapiens, UniProt P08069)	inhibitor, Kinobeads competition profiling		0.16 µM	reference: vehicle	relative abundance	1.06
CC1(C)SC2C(NC(=O)C(NC(=O)C3=C(O)C(Cc4ccccc4)NC3=O)c3ccccc3)C(=O)N2C1C(=O)O (centres unmarked)	Escherichia coli		ATCC 35218, low-level TEM-1	without clavulanic acid		MIC	> 200 µg/mL
CC(C)C[C@H](NC(=O)[C@H](CCCNC(=N)N)NC(=O)[C@H](Cc1c[nH]c2ccccc12)NC(=O)[C@H](CCCNC(=N)N)NC(=O)[C@H](Cc1c[nH]c2ccccc12)NC(=O)[C@H](Cc1c[nH]c2ccccc12)NC(=O)[C@H](Cc1c[nH]c2ccccc12)NC(=O)[C@H](CCCNC(=N)N)NC(=O)[C@H](Cc1c[nH]c2ccccc12)NC(=O)[C@@H](N)CCCNC(=N)N)C(N)=O	Candida albicans	broth microdilution	CGMCC 2.209, RPMI 1640-MOPS	48 h, 30 °C, added: NaCl 150 mM		MIC	16 µM
CC1(C)SC2C(NC(=O)C(NC(=O)C3=C(O)C4(CC4)NC3=O)c3ccccc3)C(=O)N2C1C(=O)O (centres unmarked)	Escherichia coli	broth microdilution	isolate IU 356 A, KPC-3, VIM-1, TEM	no clavulanic acid		MIC	> 200 µg/mL
CC[C@H](C)CCCCC(=O)N[C@@H](CCN)C(=O)N[C@H](C(=O)N[C@@H](CCN)C(=O)N[C@H]1CCNC(=O)[C@H]([C@@H](C)O)NC(=O)[C@H](CCN)NC(=O)[C@H](CCN)NC(=O)[C@H](CC(C)C)NC(=O)[C@@H](Cc2ccccc2)NC(=O)[C@H](CCN)NC1=O)[C@@H](C)O	Micrococcus luteus	broth microdilution	ATCC 49732	24 h, 37 °C		MIC	2 µg/mL
C[C@H](NC(=O)CO/N=c1\cc2n(-c3ccc(Cl)cc3)c3ccccc3nc-2cc1Nc1ccc(Cl)cc1)C(=O)OC(C)(C)C	Neisseria gonorrhoeae	bacterial growth	1130991, multidrug-resistant	24 h		MIC	> 30 µM
CC[C@H](C)[C@H](NC(=O)[C@H](CCCCN)NC(=O)[C@@H](NC(=O)[C@H](Cc1ccc(O)cc1)NC(=O)[C@H](CCCCN)NC(=O)[C@H](CCCCN)NC(=O)CNC(=O)[C@H](CCCCN)NC(=O)[C@@H](NC(=O)[C@H](C)NC(=O)[C@H](CC(C)C)NC(=O)[C@H](Cc1c[nH]c2ccccc12)NC(=O)CNC(=O)[C@@H](NC(=O)[C@H](Cc1ccccc1)NC(=O)[C@H](CCCCN)NC(=O)[C@H](CC(C)C)NC(=O)[C@H](Cc1ccccc1)NC(=O)[C@H](C)NC(=O)CNC(=O)[C@@H](N)CCSC)C(C)C)[C@@H](C)O)C(C)C)C(=O)N[C@@H](C)C(=O)N[C@@H](Cc1c[nH]c2ccccc12)C(=O)N[C@@H](CC(=O)O)C(=O)N[C@@H](Cc1c[nH]cn1)C(=O)N[C@@H](CCCCN)C(=O)NCC(=O)N[C@H](C(=O)N[C@H](C(=O)N[C@@H](CCSC)C(=O)N[C@@H](CCCCN)C(=O)N[C@@H](Cc1c[nH]c2ccccc12)C(=O)N[C@@H](CC(C)C)C(=O)N[C@@H](CC(N)=O)C(=O)N[C@@H](C)C(=O)NCC(=O)N[C@@H](CCC(N)=O)C(=O)N[C@H](C(=O)N[C@@H](Cc1ccccc1)C(=O)N[C@H](C(=O)N[C@@H](Cc1c[nH]c2ccccc12)C(=O)N[C@H](C(=O)N[C@@H](Cc1ccc(O)cc1)C(=O)N[C@@H](CCC(=O)O)C(=O)N[C@@H](CCC(N)=O)C(=O)N[C@H](C(=O)N[C@@H](CCCCN)C(=O)N[C@@H](CCCCN)C(=O)N[C@@H](CC(C)C)C(=O)N[C@@H](Cc1c[nH]c2ccccc12)C(=O)N[C@H](C(=O)O)[C@@H](C)O)[C@@H](C)CC)C(C)C)[C@@H](C)O)[C@@H](C)O)[C@@H](C)CC)[C@@H](C)O	Kocuria rhizophila	broth microdilution	CECT 241	37 °C		MIC	2 µg/mL
CC1NC(=O)C(C(=O)NC(C(=O)NC2C(=O)N3C2SC(C)(C)C3C(=O)O)c2ccccc2)=C1O (centres unmarked)	Escherichia coli	broth microdilution	Keio mutant JW0587-1	18 h, enterobactin-related gene		MIC	100 µg/mL
C[C@@H](O)[C@H]1C(=O)N2C(C(=O)O)=C(SCCN=CN)C[C@H]12	Klebsiella pneumoniae		K4, during ceftazidime-avibactam induction	highest MIC, avibactam 2731/4 mg/L		MIC	> 128 µg/mL
N=C(N)NCCC[C@H](NC(=O)[C@H](Cc1c[nH]c2ccccc12)NC(=O)[C@H](CCCNC(=N)N)NC(=O)[C@H](Cc1c[nH]c2ccccc12)NC(=O)[C@H](Cc1c[nH]c2ccccc12)NC(=O)[C@H](Cc1c[nH]c2ccccc12)NC(=O)[C@H](CCCNC(=N)N)NC(=O)[C@H](Cc1c[nH]c2ccccc12)NC(=O)[C@@H](N)CCCNC(=N)N)C(=O)N[C@@H](Cc1c[nH]c2ccccc12)C(N)=O	Candida albicans	broth microdilution	CGMCC 2.209, RPMI 1640-MOPS	48 h, 30 °C, added: FeCl3 4 µM		MIC	16 µM
CC[C@H](C)[C@H](NC(=O)[C@H](Cc1ccccc1)NC(=O)[C@@H](NC(=O)[C@H](CO)NC(=O)[C@@H](N)CCCNC(=N)N)[C@@H](C)CC)C(=O)N[C@@H](CCCCN)C(=O)N[C@@H](Cc1ccc(O)cc1)C(=O)N[C@@H](CCCCN)C(=O)N[C@@H](CO)C(=O)N[C@@H](CCCCN)C(=O)N1CCC[C@H]1C(=O)N[C@@H](Cc1ccccc1)C(=O)N[C@@H](CS)C(=O)N[C@@H](CCC(=O)O)C(=O)N[C@@H](CCCCN)C(=O)N[C@@H](CC(C)C)C(=O)N[C@@H](CC(C)C)C(=O)N[C@@H](CO)C(=O)N[C@@H](Cc1c[nH]c2ccccc12)C(=O)N[C@H](C(=O)N[C@@H](CCCCN)C(=O)N[C@@H](CO)C(=O)O)C(C)C	Micrococcus luteus		NCTC 2665			MIC	12.5 µg/mL
O/N=c1\cc2n(-c3ccc(Cl)cc3)c3ccccc3nc-2cc1Nc1ccc(Cl)cc1	Neisseria gonorrhoeae	bacterial growth	700825, streptomycin-resistant	24 h		MIC	3.75 µM
CC[C@H](C)[C@H](NC(=O)[C@H](CCCNC(=N)N)NC(=O)[C@H](Cc1c[nH]c2ccccc12)NC(=O)[C@H](CCCNC(=N)N)NC(=O)[C@H](Cc1c[nH]c2ccccc12)NC(=O)[C@H](Cc1c[nH]c2ccccc12)NC(=O)[C@H](Cc1c[nH]c2ccccc12)NC(=O)[C@H](CCCNC(=N)N)NC(=O)[C@H](Cc1c[nH]c2ccccc12)NC(=O)[C@H](CCCNC(=N)N)NC(=O)CN)C(N)=O	Candida albicans	broth microdilution	14936, RPMI 1640-MOPS	48 h, 30 °C		MIC	8 µM
CO/N=c1\cc2n(-c3ccc(Cl)cc3)c3ccccc3nc-2cc1Nc1ccc(Cl)cc1	Neisseria gonorrhoeae	bacterial growth	1130991, multidrug-resistant	24 h		MIC	0.94 µM
CC[C@H](C)[C@H](NC(=O)CN)C(=O)NCC(=O)N[C@@H](C)C(=O)N[C@H](C(=O)N[C@@H](CC(C)C)C(=O)N[C@@H](CCCCN)C(=O)N[C@H](C(=O)N[C@@H](CC(C)C)C(=O)N[C@H](C(=O)N[C@H](C(=O)NCC(=O)N[C@@H](CC(C)C)C(=O)N1CCC[C@H]1C(=O)N[C@@H](C)C(=O)N[C@@H](CC(C)C)C(=O)N[C@H](C(=O)N[C@@H](CO)C(=O)N[C@@H](Cc1c[nH]c2ccccc12)C(=O)N[C@H](C(=O)N[C@@H](CCCCN)C(=O)N[C@@H](CCCNC(=N)N)C(=O)N[C@@H](CCCCN)C(=O)N[C@@H](CCCNC(=N)N)C(=O)N[C@@H](CCC(N)=O)C(=O)N[C@@H](CCC(N)=O)C(N)=O)[C@@H](C)CC)[C@@H](C)CC)[C@@H](C)O)[C@@H](C)O)C(C)C)C(C)C	Candida tropicalis	broth microdilution	CGMCC 2.192, RPMI 1640-MOPS	48 h, 30 °C		MIC	4 µM
CC1(C)SC2C(NC(=O)C(NC(=O)C3=C(O)C(c4ccccc4)NC3=O)c3ccccc3)C(=O)N2C1C(=O)O (centres unmarked)	Escherichia coli	broth microdilution	Keio mutant JW0587-1	18 h, enterobactin-related gene		MIC	25 µg/mL
CN[C@H](CC(C)C)C(=O)N[C@H]1C(=O)N[C@@H](CC(N)=O)C(=O)N[C@H]2C(=O)N[C@H]3C(=O)N[C@H](C(=O)N[C@H](C(=O)O)c4cc(O)cc(O)c4-c4cc3ccc4O)[C@H](O)c3ccc(c(Cl)c3)Oc3cc2cc(c3O[C@@H]2O[C@H](CO)[C@@H](O)[C@H](O)[C@H]2O[C@H]2C[C@](C)(N)[C@H](O)[C@H](C)O2)Oc2ccc(cc2Cl)[C@H]1O	Streptococcus pyogenes		erythromycin-resistant, 19 strains			MIC	0.27 µg/mL
C[C@H](NC(=O)[C@H](CCCNC(=N)N)NC(=O)[C@H](Cc1c[nH]c2ccccc12)NC(=O)[C@H](CCCNC(=N)N)NC(=O)[C@H](Cc1c[nH]c2ccccc12)NC(=O)[C@H](Cc1c[nH]c2ccccc12)NC(=O)[C@H](Cc1c[nH]c2ccccc12)NC(=O)[C@H](CCCNC(=N)N)NC(=O)[C@H](Cc1c[nH]c2ccccc12)NC(=O)[C@@H](N)CCCNC(=N)N)C(N)=O	Candida albicans	broth microdilution	alveolar fluid isolate, RPMI 1640-MOPS	48 h, 30 °C		MIC	8 µM

Some of these lines once more:
SMILES	target or system	test	test system	setting	scale	measurement	value
CN[C@H](CC(C)C)C(=O)N[C@H]1C(=O)N[C@@H](CC(N)=O)C(=O)N[C@H]2C(=O)N[C@H]3C(=O)N[C@H](C(=O)N[C@H](C(=O)O)c4cc(O)cc(O)c4-c4cc3ccc4O)[C@H](O)c3ccc(c(Cl)c3)Oc3cc2cc(c3O[C@@H]2O[C@H](CO)[C@@H](O)[C@H](O)[C@H]2O[C@H]2C[C@](C)(N)[C@H](O)[C@H](C)O2)Oc2ccc(cc2Cl)[C@H]1O	Streptococcus pyogenes		erythromycin-resistant, 19 strains			MIC	0.27 µg/mL
CC1(C)SC2C(NC(=O)C(NC(=O)C3=C(O)C(c4ccccc4)NC3=O)c3ccccc3)C(=O)N2C1C(=O)O (centres unmarked)	Escherichia coli	broth microdilution	Keio mutant JW0587-1	18 h, enterobactin-related gene		MIC	25 µg/mL
